Experimental data of several laboratories.
Each line is one published result; not all experiments were run side by side. Values joined by “and” are separate records of one study, mostly repeats; a detail may differ. ± marks the error that the study gave.
GLP1R: Glucagon-like peptide 1 receptor (GLP1R, Homo sapiens, UniProt P43220)
Sequence of UniProt Q16774 (whole entry, unmodified, looked up): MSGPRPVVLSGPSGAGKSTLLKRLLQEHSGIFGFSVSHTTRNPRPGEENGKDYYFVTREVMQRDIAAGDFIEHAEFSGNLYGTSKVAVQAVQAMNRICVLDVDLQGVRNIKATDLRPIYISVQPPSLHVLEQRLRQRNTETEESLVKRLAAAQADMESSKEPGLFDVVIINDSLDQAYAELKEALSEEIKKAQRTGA
Sequence of UniProt P51575 (whole entry, unmodified, looked up): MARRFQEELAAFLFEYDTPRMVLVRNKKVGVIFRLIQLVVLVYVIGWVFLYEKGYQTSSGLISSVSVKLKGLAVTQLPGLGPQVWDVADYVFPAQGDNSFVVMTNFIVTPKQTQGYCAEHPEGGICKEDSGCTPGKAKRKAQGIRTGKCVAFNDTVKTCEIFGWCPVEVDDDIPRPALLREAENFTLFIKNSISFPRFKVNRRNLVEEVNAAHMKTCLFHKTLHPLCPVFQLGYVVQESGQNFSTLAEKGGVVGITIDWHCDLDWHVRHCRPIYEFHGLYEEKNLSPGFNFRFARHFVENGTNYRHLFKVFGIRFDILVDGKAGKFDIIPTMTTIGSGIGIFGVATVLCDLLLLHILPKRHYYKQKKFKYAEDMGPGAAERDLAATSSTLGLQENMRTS
Sequence of UniProt P05164 (whole entry, looked up): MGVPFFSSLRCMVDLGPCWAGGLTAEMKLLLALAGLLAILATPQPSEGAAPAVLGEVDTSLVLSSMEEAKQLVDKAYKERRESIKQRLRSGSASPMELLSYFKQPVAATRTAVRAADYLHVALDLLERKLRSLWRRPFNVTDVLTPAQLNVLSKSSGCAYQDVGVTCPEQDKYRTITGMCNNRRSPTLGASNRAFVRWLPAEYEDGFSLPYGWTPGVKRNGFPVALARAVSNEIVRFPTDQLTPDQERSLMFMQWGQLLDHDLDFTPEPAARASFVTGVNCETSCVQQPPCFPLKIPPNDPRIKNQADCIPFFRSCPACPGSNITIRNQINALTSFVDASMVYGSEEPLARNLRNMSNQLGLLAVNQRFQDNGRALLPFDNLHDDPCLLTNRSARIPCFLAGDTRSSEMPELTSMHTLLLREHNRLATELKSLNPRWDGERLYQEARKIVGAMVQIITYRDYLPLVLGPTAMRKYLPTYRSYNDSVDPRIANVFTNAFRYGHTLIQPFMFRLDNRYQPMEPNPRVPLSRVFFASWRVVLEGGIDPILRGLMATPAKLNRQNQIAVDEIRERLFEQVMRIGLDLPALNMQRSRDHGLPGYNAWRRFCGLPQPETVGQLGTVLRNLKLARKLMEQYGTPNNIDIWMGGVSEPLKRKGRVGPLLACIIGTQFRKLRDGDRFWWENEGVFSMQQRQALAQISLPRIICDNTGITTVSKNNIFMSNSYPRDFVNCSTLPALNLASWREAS
Sequence of UniProt P11388 (whole entry, looked up): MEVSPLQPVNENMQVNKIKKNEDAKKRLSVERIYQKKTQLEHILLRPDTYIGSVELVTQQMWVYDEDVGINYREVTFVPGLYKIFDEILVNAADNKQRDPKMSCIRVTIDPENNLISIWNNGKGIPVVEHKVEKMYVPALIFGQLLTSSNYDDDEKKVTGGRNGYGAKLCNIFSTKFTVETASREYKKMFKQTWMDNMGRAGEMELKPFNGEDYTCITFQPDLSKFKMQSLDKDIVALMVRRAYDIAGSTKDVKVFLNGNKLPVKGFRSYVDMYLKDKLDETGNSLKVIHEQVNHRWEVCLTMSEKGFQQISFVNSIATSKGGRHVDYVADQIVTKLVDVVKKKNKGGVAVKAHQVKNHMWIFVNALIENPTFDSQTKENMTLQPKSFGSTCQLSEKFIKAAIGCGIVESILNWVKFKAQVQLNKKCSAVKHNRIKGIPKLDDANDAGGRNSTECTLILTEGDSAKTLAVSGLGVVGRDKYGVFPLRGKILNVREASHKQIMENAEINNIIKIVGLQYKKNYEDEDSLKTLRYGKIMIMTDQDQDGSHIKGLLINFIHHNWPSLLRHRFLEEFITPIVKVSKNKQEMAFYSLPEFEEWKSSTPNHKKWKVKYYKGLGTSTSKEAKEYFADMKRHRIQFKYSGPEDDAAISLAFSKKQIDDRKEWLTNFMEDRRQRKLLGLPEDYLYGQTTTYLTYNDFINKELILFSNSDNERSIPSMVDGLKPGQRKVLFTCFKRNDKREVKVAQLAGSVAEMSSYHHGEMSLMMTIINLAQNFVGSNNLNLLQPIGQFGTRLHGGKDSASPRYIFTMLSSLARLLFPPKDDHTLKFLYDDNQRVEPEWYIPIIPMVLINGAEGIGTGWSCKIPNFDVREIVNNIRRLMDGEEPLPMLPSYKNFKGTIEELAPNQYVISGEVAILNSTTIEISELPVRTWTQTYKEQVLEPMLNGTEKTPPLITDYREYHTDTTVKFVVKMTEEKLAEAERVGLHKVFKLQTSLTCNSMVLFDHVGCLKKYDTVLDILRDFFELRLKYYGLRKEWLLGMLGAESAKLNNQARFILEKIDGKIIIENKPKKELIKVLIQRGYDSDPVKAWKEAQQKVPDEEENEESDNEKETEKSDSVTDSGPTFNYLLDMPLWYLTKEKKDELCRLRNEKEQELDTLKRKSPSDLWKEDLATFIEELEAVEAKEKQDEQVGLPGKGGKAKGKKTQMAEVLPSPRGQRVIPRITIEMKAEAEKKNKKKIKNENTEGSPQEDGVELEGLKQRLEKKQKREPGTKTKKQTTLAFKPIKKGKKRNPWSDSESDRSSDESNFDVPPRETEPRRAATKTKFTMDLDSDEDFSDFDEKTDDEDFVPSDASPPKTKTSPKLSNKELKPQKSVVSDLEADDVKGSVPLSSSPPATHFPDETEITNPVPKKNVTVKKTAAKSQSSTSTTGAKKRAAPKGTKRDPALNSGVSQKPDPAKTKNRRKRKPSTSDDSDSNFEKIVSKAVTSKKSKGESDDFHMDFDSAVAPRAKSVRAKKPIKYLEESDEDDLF
Sequence of UniProt P30191 (whole entry, looked up): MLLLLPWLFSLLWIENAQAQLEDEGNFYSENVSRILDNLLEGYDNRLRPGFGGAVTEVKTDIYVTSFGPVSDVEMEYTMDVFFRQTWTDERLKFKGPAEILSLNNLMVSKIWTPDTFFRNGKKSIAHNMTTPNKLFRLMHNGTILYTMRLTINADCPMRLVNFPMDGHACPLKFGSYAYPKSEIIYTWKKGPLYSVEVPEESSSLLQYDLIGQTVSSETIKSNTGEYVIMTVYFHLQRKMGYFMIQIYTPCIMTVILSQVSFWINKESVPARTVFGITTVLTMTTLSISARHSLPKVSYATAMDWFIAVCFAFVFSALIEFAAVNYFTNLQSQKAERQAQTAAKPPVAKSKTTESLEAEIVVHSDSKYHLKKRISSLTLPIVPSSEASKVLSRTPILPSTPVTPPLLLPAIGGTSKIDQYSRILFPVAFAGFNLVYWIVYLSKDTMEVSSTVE
Sequence of UniProt Q5AHK2 (whole entry, looked up): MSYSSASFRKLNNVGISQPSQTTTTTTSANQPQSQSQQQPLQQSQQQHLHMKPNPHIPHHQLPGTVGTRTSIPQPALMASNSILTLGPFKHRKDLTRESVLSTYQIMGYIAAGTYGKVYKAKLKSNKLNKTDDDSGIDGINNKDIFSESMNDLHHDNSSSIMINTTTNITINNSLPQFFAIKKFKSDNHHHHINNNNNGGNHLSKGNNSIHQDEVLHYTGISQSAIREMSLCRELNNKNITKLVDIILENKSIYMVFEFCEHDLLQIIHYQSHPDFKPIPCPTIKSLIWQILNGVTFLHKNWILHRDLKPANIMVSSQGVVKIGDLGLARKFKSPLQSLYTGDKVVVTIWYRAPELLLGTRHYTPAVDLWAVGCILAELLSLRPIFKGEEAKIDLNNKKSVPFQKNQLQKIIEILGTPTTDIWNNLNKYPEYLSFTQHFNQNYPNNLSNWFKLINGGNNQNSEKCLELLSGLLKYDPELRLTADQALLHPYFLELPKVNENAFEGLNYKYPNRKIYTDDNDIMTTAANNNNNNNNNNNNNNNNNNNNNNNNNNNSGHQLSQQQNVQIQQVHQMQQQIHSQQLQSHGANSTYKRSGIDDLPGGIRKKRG
Sequence of UniProt Q62351 (whole entry, looked up): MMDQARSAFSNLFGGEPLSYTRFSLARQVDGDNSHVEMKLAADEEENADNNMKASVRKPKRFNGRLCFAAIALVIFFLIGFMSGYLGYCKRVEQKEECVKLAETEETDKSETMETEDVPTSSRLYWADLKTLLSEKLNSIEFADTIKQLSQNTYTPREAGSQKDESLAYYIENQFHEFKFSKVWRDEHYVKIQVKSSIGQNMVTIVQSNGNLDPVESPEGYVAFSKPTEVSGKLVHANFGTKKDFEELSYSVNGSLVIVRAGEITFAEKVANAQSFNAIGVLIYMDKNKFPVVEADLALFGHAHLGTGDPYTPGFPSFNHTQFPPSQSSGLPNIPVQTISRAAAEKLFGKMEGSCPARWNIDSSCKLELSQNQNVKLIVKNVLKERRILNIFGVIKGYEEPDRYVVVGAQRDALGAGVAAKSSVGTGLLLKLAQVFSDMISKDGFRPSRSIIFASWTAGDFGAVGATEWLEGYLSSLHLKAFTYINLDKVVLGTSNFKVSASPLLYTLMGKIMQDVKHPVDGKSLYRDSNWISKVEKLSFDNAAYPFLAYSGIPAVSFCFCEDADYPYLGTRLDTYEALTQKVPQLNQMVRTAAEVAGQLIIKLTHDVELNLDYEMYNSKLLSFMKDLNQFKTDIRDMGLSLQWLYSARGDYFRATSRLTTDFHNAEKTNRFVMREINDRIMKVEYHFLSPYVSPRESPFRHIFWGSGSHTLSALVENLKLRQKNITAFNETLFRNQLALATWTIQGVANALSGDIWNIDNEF

For CN1CCN(c2cc(-c3ccncc3)c(-c3ccc4ccccc4c3)nn2)CC1, the activation was -1.7% (SSTR3 (Homo sapiens, UniProt P32745); agonist, FLIPR; 12.5 µM).
CC[C@H](C)[C@H](NC(=O)[C@H](Cc1ccccc1)NC(=O)[C@H](CCC(=O)O)NC(=O)[C@H](CCCNC(=N)N)NC(=O)[C@H](C)NC(=O)[C@H](C)NC(=O)[C@H](CCC(N)=O)NC(=O)[C@H](CCC(=O)O)NC(=O)[C@H](CCC(=O)O)NC(=O)[C@H](CC(C)C)NC(=O)[C@H](Cc1ccc(O)cc1)NC(=O)[C@H](CO)NC(=O)[C@H](CO)NC(=O)[C@@H](NC(=O)[C@H](CC(=O)O)NC(=O)[C@H](CO)NC(=O)[C@@H](NC(=O)[C@H](Cc1ccccc1)NC(=O)[C@@H](NC(=O)CNC(=O)[C@H](CCC(=O)O)NC(=O)[C@H](C)NC(=O)CCc1cnc[nH]1)[C@@H](C)O)[C@@H](C)O)C(C)C)C(=O)N[C@@H](C)C(=O)N[C@@H](Cc1c[nH]c2ccccc12)C(=O)N[C@@H](CC(C)C)C(=O)N[C@H](C(=O)N[C@@H](CCCNC(=N)N)C(=O)NCC(=O)N[C@@H](CCCNC(=N)N)C(=O)N[C@@H](CCCCNC(=O)COCCOCCNC(=O)COCCOCCNC(=O)CC[C@H](NC(=O)CCCCCCCCCCCCCCCCC(=O)O)C(=O)O)C(=O)NCC(=O)NCC(=O)N[C@@H](CO)C(=O)N[C@@H](CCCCNc1c(NCCCCCN(O)C(=O)CCC(=O)NCCCCCN(O)C(=O)CCC(=O)NCCCCCN(O)C(C)=O)c(=O)c1=O)C(=O)N[C@@H](CCCCNc1c(NCCCCCN(O)C(=O)CCC(=O)NCCCCCN(O)C(=O)CCC(=O)NCCCCCN(O)C(C)=O)c(=O)c1=O)C(=O)O)C(C)C — result for “fold potency loss”: 2 (GLP1R; agonist, CRE luciferase reporter; BHK cells; metal-free DFO conjugate, together with: 1% HSA; relative to: parent peptide).
NC/C(=C\F)COc1cccc(Cn2c(=S)[nH]c(=O)c3[nH]cnc32)c1 — result for “LDL lipid peroxidation”: 1.69% and 16.4% and 8.14% and 2.22% (Myeloperoxidase (MPO, Homo sapiens, UniProt P05164); inhibitor, cholesteryl ester hydroperoxide; 0.5 µM; relative to: control).
For CC[C@@H](C)[C@@H](NC(=O)[C@@H](Cc1ccc(O)cc1)NC(=O)[C@H]1CCCN1C(=O)[C@@H](CCCNC(=N)N)NC(=O)[C@H](N)Cc1c[nH]cn1)C(=O)N[C@H](C)C(=O)N[C@H](Cc1c[nH]cn1)C(=O)N[C@H](CCCNC(=N)N)C(=O)N[C@@H](C(=O)N[C@H](Cc1ccc(O)cc1)C(=O)N[C@H](CO)C(=O)N[C@H](Cc1ccccc1)C(N)=O)C(C)C, “surface TFRC expression” read 0.836 (Transferrin receptor protein 1 (Tfrc, Mus musculus, UniProt Q62351); flow cytometry; MC-38; 6 h, unit not given; relative to: 0 h).
For c1coc(-c2n[nH]cc2-c2ccnc3ccccc23)c1, “log2 fold change” read -0.01 (Serine/threonine-protein kinase SSN3 (SSN3, Candida albicans, UniProt Q5AHK2); kinase binding, MIB/MS competition; Candida albicans lysate; 1 µM; relative to: DMSO, negative = stronger binding).
CCOc1ccc(NC(=O)O[C@H](Cn2nc(C(C)C)cc2C(C)C)C(C)C)cc1 has a current of 86 ± 5% (Neuronal acetylcholine receptor; alpha4/beta2, (α4)2(β2)3 stoichiometry (Homo sapiens, UniProt P17787+P43681); ACh-evoked current, two-electrode voltage clamp; 1 µM, high-sensitivity stoichiometry, together with: ACh 1 µM; relative to: ACh alone).
For CC(C)[C@H](NC(=O)c1cc(-c2cnn3cc(-c4ccc(OCCN5CCCCC5)cc4)cnc23)cs1)C(F)(F)F, the relative inhibition was 0.0455 (PLK2 (human); radiometric kinase; 15 nM; relative to: PLK2 over ULK1).
CC[C@H](C)[C@H](NC(=O)[C@H](Cc1ccccc1)NC(=O)[C@H](CCC(=O)O)NC(=O)[C@H](CCCNC(=N)N)NC(=O)[C@H](C)NC(=O)[C@H](C)NC(=O)[C@H](CCC(N)=O)NC(=O)[C@H](CCC(=O)O)NC(=O)[C@H](CCC(=O)O)NC(=O)[C@H](CC(C)C)NC(=O)[C@H](Cc1ccc(O)cc1)NC(=O)[C@H](CO)NC(=O)[C@H](CO)NC(=O)[C@@H](NC(=O)[C@H](CC(=O)O)NC(=O)[C@H](CO)NC(=O)[C@@H](NC(=O)[C@H](Cc1ccccc1)NC(=O)[C@@H](NC(=O)CNC(=O)[C@H](CCC(=O)O)NC(=O)[C@H](C)NC(=O)CCc1cnc[nH]1)[C@@H](C)O)[C@@H](C)O)C(C)C)C(=O)N[C@@H](C)C(=O)N[C@@H](Cc1c[nH]c2ccccc12)C(=O)N[C@@H](CC(C)C)C(=O)N[C@H](C(=O)N[C@@H](CCCCNC(=O)COCCOCCNC(=O)COCCOCCNC(=O)CC[C@H](NC(=O)CCCCCCCCCCCCCCCCC(=O)O)C(=O)O)C(=O)NCC(=O)N[C@@H](CCCNC(=N)N)C(=O)N[C@@H](CCCCNc1c(NCCCCCN(O)C(=O)CCC(=O)NCCCCCN(O)C(=O)CCC(=O)NCCCCCN(O)C(C)=O)c(=O)c1=O)C(=O)NCC(=O)NCC(=O)N[C@@H](CO)C(=O)N[C@@H](CCCCNc1c(NCCCCCN(O)C(=O)CCC(=O)NCCCCCN(O)C(=O)CCC(=O)NCCCCCN(O)C(C)=O)c(=O)c1=O)C(=O)NCC(=O)NCC(=O)N[C@@H](CO)C(=O)N[C@@H](CCCCNc1c(NCCCCCN(O)C(=O)CCC(=O)NCCCCCN(O)C(=O)CCC(=O)NCCCCCN(O)C(C)=O)c(=O)c1=O)C(=O)NCC(=O)NCC(=O)N[C@@H](CO)C(=O)N[C@@H](CCCCNc1c(NCCCCCN(O)C(=O)CCC(=O)NCCCCCN(O)C(=O)CCC(=O)NCCCCCN(O)C(C)=O)c(=O)c1=O)C(=O)O)C(C)C — result for “fold potency loss”: 5.3 (GLP1R; agonist, CRE luciferase reporter; BHK cells; metal-free DFO conjugate, together with: 0% HSA; relative to: parent peptide).
For Nc1ncnc2c1ncn2[C@@H]1O[C@H](COP(=O)(O)CP(=O)(O)OP(=O)(O)O)[C@@H](O)[C@H]1O, the specific binding was 6140 CCPM and 2940 CCPM and 1880 CCPM (P2X purinoceptor 1 (P2RX1, Homo sapiens, UniProt P51575, K140A); saturation binding; HEK293; 52 nM).
CC[C@@H]1[C@H](F)C(=O)N[C@@H]1COc1nccc2cc(C(N)=O)c(OC)cc12 gave an inhibition of -2.6% (CAMK1 (Homo sapiens, UniProt Q14012); ATP probe binding, KiNativ profiling, measured: Lys1 probe site; THP-1 cell lysate; 0.01 mM).
With NCC[C@H](O)C(=O)N[C@@H]1C[C@H](N)[C@@H](O[C@H]2O[C@H](CN)[C@@H](O)[C@H](O)[C@H]2O)[C@H](O)[C@H]1O[C@H]1O[C@H](CO)[C@@H](O)[C@H](N)[C@H]1O the ΔG° was -5.92 kcal/mol (Albumin (ALB, Bos taurus, UniProt P02769); binding, tryptophan fluorescence quenching; pH 7.4, 289 K).
The cysteine occupancy of C[C@@H]1CCN(C(=O)CCl)[C@@H](C(N)=O)C1 is reported as 3.8% (human NEDD9 full length; LC-MS peptide mapping, measured: Cys18; 50 µM, 0.5 h).
O=C(N/N=C/c1cc(Br)ccc1O)c1cc2ccccc2cc1O — result for activity: “inactive” (NR3C1 (Homo sapiens, UniProt P04150); SRC1-4 coactivator displacement, inhibitor, TR-FRET; up to 100 µM, together with: dexamethasone).
Under “cooperativity factor alpha”, Cc1ncsc1-c1ccc(CNC(=O)[C@@H]2C[C@H](O)CN2C(=O)[C@@H](NC(=O)C2(F)CC2)C(C)(C)C)c(OCCOc2ccc(CN3CCN(c4cc(-c5ccccc5O)nnc4N)CC3)cc2)c1 is recorded as 1 (SWI/SNF-related matrix-associated actin-dependent regulator of chromatin subfamily A member 4, bromodomain (SMARCA4, Homo sapiens, UniProt P51532); ternary complex binding, TR-FRET competition; together with: VCB complex).
For Nc1nc2c(ncn2[C@@H]2O[C@H](COP(=O)(O)O)[C@@H](O)[C@H]2O)c(=O)[nH]1, the reaction rate was 0.915 s⁻¹ and 0.617 s⁻¹ and 1.06 s⁻¹ (GUK1 (Homo sapiens, UniProt Q16774, R41A); enzyme activity, NADH-coupled; 15.62 µM).
For COc1cccc(-n2nc3c4cc(Cl)ccc4[nH]cc-3c2=O)c1, the efficacy was 159 ± 13.4% (Gamma-aminobutyric acid receptor subunit alpha-6/beta-3, with delta subunit (Gabra6/Gabrb3, Rattus norvegicus, UniProt P30191+P63079); ion current, modulator, two-electrode voltage clamp; 10 µM, α6β3δ receptor, together with: GABA EC3-10).
Under “sialic acid release”, O=C(CO)NC1C(O)CC(OCC2OC(Oc3ccc([N+](=O)[O-])cc3)C(O)C(O)C2O)(C(=O)O)OC1C(O)C(O)CO (centres unmarked) is recorded as 41% (Sialidase-2 (Homo sapiens, UniProt Q9Y3R4); substrate; 0.3 mM, 30 min, pH 5.0, 37 °C).
For CN1CCN(c2ccc3nc(-c4c(N)c5c(F)cccc5[nH]c4=O)[nH]c3c2)CC1, “luminescence signal reduction” read 2.43% (NanoBiT HiBiT/LgBiT luciferase; inhibitor, HiBiT luminescence counterscreen; conditioned medium only; 5 µM, 24 h; relative to: vehicle).
COc1cc(-c2cc(C(C)=O)n3ccccc23)cc(OC)c1Cn1ccnc1 has a ΔTm of -0.1 °C (TRIM24 (Homo sapiens, UniProt O15164)).
For O=c1nc(SCc2cc(F)cc(C(F)(F)F)c2)nc(SCc2ccc3sccc3c2)[nH]1, “ATP hydrolysis rate” read 1.26 µM/min and 1.63 µM/min (TOP2A (Homo sapiens, UniProt P11388); ATPase activity; 7.8 µM, together with: ATP 0.75 mM).
For O=S(=O)(O)C1CCNCC1, the fraction bound was 0 (SLC6A6 (Homo sapiens, UniProt P31641, Y138A); binding, microscale thermophoresis; 35.1 nM, fitted curve; higher = more binding).
Nc1ncc2c(n1)-c1c([nH]c3ccc(C#CC4CC4)cc13)CCCC2 gave an affinity ratio of > 100 fold (PIP4K2C (Homo sapiens, UniProt Q8TBX8); binding, NanoBRET target engagement; intact cells; relative to: cell-free over intact-cell affinity).
CCCC(CCC)c1nc2c(Nc3ccc(C#CCCCCCCCCN)cc3)nc3ccccc3c2[nH]1 — result for off-target affinity: “inactive” (ADRB3 (Homo sapiens, UniProt P13945); PDSP screening).
With O=C(O)c1ccc(Nc2ncc3c(n2)-c2ccc(Cl)cc2C(c2c(F)cccc2F)=NC3)cc1 the remaining activity was 95% (ALK(h); kinase activity; 1 µM).
CC[C@H](C)[C@H](NC(=O)[C@H](Cc1ccccc1)NC(=O)[C@H](CCC(=O)O)NC(=O)[C@H](CCCNC(=N)N)NC(=O)[C@H](C)NC(=O)[C@H](C)NC(=O)[C@H](CCC(N)=O)NC(=O)[C@H](CCC(=O)O)NC(=O)[C@H](CCC(=O)O)NC(=O)[C@H](CC(C)C)NC(=O)[C@H](Cc1ccc(O)cc1)NC(=O)[C@H](CO)NC(=O)[C@H](CO)NC(=O)[C@@H](NC(=O)[C@H](CC(=O)O)NC(=O)[C@H](CO)NC(=O)[C@@H](NC(=O)[C@H](Cc1ccccc1)NC(=O)[C@@H](NC(=O)CNC(=O)[C@H](CCC(=O)O)NC(=O)[C@H](C)NC(=O)CCc1cnc[nH]1)[C@@H](C)O)[C@@H](C)O)C(C)C)C(=O)N[C@@H](C)C(=O)N[C@@H](Cc1c[nH]c2ccccc12)C(=O)N[C@@H](CC(C)C)C(=O)N[C@H](C(=O)N[C@@H](CCCNC(=N)N)C(=O)NCC(=O)N[C@@H](CCCNC(=N)N)C(=O)N[C@@H](CCCCNC(=O)COCCOCCNC(=O)COCCOCCNC(=O)CC[C@H](NC(=O)CCCCCCCCCCCCCCCCC(=O)O)C(=O)O)C(=O)NCC(=O)NCC(=O)N[C@@H](CO)C(=O)N[C@@H](CCCCNC(=O)[C@H](CCCCNc1c(NCCCCCN(O)C(=O)CCC(=O)NCCCCCN(O)C(=O)CCC(=O)NCCCCCN(O)C(C)=O)c(=O)c1=O)Nc1c(NCCCCCN(O)C(=O)CCC(=O)NCCCCCN(O)C(=O)CCC(=O)NCCCCCN(O)C(C)=O)c(=O)c1=O)C(=O)O)C(C)C: “fold potency loss” 1.5 (GLP1R; agonist, CRE luciferase reporter; BHK cells; Zr-loaded DFO conjugate, together with: 0% HSA; relative to: parent peptide).
For C=CC(=O)N1CCC(COCC(=O)N2CCN(c3nc(-c4cnc(N)nc4C(F)F)nc(N4CCOC[C@@H]4C)n3)CC2)CC1, the remaining binding was 100% (MYLK (Homo sapiens, UniProt Q15746); KINOMEscan; 1 µM).

Repeated from above:
CCOc1ccc(NC(=O)O[C@H](Cn2nc(C(C)C)cc2C(C)C)C(C)C)cc1 has a current of 86 ± 5% (Neuronal acetylcholine receptor; alpha4/beta2, (α4)2(β2)3 stoichiometry (Homo sapiens, UniProt P17787+P43681); ACh-evoked current, two-electrode voltage clamp; 1 µM, high-sensitivity stoichiometry, together with: ACh 1 µM; relative to: ACh alone).
For O=S(=O)(O)C1CCNCC1, the fraction bound was 0 (SLC6A6 (Homo sapiens, UniProt P31641, Y138A); binding, microscale thermophoresis; 35.1 nM, fitted curve; higher = more binding).
The cysteine occupancy of C[C@@H]1CCN(C(=O)CCl)[C@@H](C(N)=O)C1 is reported as 3.8% (human NEDD9 full length; LC-MS peptide mapping, measured: Cys18; 50 µM, 0.5 h).
O=C(N/N=C/c1cc(Br)ccc1O)c1cc2ccccc2cc1O — result for activity: “inactive” (NR3C1 (Homo sapiens, UniProt P04150); SRC1-4 coactivator displacement, inhibitor, TR-FRET; up to 100 µM, together with: dexamethasone).
